Experimental data collected from several papers.
Target: Amine oxidase [flavin-containing] B (MAOB, Homo sapiens, UniProt P27338)
Chain of UniProt P27338 (whole entry, looked up): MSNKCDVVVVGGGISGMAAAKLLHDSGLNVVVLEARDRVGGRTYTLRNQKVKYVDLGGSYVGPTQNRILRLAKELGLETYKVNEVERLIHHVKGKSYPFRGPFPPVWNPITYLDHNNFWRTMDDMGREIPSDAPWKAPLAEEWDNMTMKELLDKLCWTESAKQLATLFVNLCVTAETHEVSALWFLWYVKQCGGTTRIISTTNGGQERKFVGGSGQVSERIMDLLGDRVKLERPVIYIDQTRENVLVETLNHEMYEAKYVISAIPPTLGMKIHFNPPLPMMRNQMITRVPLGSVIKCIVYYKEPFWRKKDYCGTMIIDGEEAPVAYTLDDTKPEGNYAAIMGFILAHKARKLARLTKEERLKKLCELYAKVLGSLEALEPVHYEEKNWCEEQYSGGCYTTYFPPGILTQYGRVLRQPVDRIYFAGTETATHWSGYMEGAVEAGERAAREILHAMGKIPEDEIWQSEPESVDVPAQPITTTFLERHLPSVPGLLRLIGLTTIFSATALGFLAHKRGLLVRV
Effect on: enzyme activity
Action: inhibitor

| Structure (SMILES) | test | IC50 |
| --- | --- | --- |
| O=C1c2ccccc2N(Cc2cccc(Br)c2)C12CCCC2 | – | 3.02 µM |
| CNC(=S)N/N=C/c1ccc(OCc2cccc(F)c2)cc1 | absorbance | 1.68 µM |
| O=C(/C=C/c1cccc(Br)c1)c1cc2ccccc2oc1=O | – | 33.6 µM |
| S=C(N/N=C/c1ccccc1OCc1ccccc1)Nc1ccccc1 | absorbance | 15.4 µM |
| CC(=O)C1=C(C)NC(SCCCSc2nnc(Cc3ccccc3Nc3c(Cl)cccc3Cl)n2-c2ccc(Cl)c(Cl)c2)=NC1c1ccccc1 (stereo not drawn) | fluorescence | 10.1 µM |
| O=c1ccoc2ccc(OCCCCCN3CCCCCC3)cc12 | fluorescence | 19.9 µM |
| CNC(=S)N/N=C/c1ccccc1OCc1ccccc1 | absorbance | 5.77 µM |
| O=C(/C=C/c1ccc(Br)cc1)c1cc2ccccc2oc1=O | – | 2.5 µM |
| O=C1CCCC2=C1C(c1c[nH]c3ccccc13)n1c(sc(=Cc3c[nH]c4ccccc34)c1=O)=N2 (stereo not drawn) | fluorescence | 0.13 µM |
| NNC(=O)c1ccc(-n2nc(-c3ccccc3O)nc2-c2ccccc2O)cc1 | fluorescence | 0.13 µM |
| O=C1c2ccccc2N(Cc2cccc(Cl)c2)C12CCCC2 | – | 2.78 µM |
| O=C(/C=C/c1ccc(F)cc1)c1cc2ccccc2oc1=O | – | 3.36 µM |
| O=C1c2cc(F)ccc2NC12CCCC2 | – | 26.1 µM |
| O=C(/C=C/c1ccccc1Br)c1cc2ccccc2oc1=O | – | 23.6 µM |
| O=C1c2cc(F)ccc2N(Cc2ccccc2)C12CCCC2 | – | 9.33 µM |
| S=C(N/N=C/c1cccc(OCc2ccccc2)c1)Nc1ccccc1 | absorbance | 0.46 µM |
| O=c1ccoc2ccc(OCCN3CCOCC3)cc12 | fluorescence | 6.73 µM |
| COc1cc(/C=C/C(=O)NC(C)C(N)=O)ccc1OCc1ccccc1 (stereo not drawn) | fluorescence | 0.318 µM |
| CNC(=S)N/N=C/c1cccc(OCc2ccccc2)c1 | absorbance | 4.75 µM |
| O=C(/C=C/c1cccc(F)c1)c1cc2ccccc2oc1=O | – | 3.61 µM |
| NC(=O)N/N=C/c1cccc(OCc2ccccc2)c1 | absorbance | 1.55 µM |
| O=C1c2cc(Br)ccc2NC12CCCC2 | – | 16.5 µM |
| CC(=O)C1=C(C)NC(SCCCSc2nnc(Cc3ccccc3Nc3c(Cl)cccc3Cl)n2-c2ccc(Cl)c(Cl)c2)=NC1c1ccc(C)cc1 (stereo not drawn) | fluorescence | 15.2 µM |
| NC(=O)N/N=C/c1ccccc1OCc1ccccc1 | absorbance | > 40 µM |

Excerpt of the above:
| Structure (SMILES) | test | IC50 |
| --- | --- | --- |
| O=C(/C=C/c1ccc(Br)cc1)c1cc2ccccc2oc1=O | – | 2.5 µM |
| O=C1CCCC2=C1C(c1c[nH]c3ccccc13)n1c(sc(=Cc3c[nH]c4ccccc34)c1=O)=N2 (stereo not drawn) | fluorescence | 0.13 µM |
| NNC(=O)c1ccc(-n2nc(-c3ccccc3O)nc2-c2ccccc2O)cc1 | fluorescence | 0.13 µM |
| O=C1c2ccccc2N(Cc2cccc(Cl)c2)C12CCCC2 | – | 2.78 µM |
